Experimental data from different studies.
Every numbered part comes from another study and shows a few of its results, in no order.
Chain of UniProt Q13546 (whole entry, looked up): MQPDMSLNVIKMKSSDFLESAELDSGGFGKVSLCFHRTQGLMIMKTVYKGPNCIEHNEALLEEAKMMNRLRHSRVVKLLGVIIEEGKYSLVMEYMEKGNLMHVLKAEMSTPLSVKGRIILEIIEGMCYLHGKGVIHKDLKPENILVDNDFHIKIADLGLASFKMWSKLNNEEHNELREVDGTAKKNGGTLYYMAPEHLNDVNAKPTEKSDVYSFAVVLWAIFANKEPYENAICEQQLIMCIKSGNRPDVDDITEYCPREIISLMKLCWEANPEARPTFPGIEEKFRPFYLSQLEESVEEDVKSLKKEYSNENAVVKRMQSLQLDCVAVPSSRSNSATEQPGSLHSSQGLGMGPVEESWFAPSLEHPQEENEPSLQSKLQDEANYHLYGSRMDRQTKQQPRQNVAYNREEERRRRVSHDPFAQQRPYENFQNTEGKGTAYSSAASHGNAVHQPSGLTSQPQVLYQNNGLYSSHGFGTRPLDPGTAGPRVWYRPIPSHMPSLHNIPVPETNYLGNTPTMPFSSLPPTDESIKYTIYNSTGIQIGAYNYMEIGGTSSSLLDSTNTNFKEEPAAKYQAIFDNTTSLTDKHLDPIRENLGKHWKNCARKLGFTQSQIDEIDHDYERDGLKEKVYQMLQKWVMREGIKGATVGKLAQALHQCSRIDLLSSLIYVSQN
Chain of UniProt P49674 (whole entry, looked up): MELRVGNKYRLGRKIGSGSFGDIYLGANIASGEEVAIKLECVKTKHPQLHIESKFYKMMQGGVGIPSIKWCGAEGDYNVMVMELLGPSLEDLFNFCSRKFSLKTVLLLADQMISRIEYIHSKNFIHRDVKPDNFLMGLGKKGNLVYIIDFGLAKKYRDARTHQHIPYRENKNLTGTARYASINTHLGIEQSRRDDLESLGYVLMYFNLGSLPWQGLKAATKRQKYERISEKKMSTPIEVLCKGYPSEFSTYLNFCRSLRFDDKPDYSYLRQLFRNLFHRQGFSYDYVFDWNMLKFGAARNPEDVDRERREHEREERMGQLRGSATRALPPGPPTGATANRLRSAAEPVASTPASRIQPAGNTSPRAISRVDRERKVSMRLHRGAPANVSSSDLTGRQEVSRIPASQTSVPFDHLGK
Chain of UniProt O15146 (whole entry, looked up): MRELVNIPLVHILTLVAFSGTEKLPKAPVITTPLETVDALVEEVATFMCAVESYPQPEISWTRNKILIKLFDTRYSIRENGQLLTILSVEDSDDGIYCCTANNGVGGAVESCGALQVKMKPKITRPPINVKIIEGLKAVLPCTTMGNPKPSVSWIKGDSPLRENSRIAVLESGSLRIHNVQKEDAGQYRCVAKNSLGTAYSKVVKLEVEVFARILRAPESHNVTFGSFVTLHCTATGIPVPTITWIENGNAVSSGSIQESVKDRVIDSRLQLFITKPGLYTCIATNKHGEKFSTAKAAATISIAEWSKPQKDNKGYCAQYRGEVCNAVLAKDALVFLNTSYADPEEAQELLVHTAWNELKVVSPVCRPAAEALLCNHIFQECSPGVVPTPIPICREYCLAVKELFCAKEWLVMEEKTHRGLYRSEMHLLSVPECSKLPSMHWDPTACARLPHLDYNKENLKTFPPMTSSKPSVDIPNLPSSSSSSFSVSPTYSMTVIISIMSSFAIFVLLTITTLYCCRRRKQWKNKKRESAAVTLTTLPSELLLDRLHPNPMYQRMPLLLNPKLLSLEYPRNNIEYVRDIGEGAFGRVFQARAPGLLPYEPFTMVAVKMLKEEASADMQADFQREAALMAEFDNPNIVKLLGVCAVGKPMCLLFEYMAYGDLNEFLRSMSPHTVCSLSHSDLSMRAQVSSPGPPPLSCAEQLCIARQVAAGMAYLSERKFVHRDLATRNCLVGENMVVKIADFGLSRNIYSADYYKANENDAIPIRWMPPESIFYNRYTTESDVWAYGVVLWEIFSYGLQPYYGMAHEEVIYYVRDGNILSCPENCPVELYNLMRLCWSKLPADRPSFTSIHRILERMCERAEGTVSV
Chain of UniProt Q9UK32 (whole entry, looked up): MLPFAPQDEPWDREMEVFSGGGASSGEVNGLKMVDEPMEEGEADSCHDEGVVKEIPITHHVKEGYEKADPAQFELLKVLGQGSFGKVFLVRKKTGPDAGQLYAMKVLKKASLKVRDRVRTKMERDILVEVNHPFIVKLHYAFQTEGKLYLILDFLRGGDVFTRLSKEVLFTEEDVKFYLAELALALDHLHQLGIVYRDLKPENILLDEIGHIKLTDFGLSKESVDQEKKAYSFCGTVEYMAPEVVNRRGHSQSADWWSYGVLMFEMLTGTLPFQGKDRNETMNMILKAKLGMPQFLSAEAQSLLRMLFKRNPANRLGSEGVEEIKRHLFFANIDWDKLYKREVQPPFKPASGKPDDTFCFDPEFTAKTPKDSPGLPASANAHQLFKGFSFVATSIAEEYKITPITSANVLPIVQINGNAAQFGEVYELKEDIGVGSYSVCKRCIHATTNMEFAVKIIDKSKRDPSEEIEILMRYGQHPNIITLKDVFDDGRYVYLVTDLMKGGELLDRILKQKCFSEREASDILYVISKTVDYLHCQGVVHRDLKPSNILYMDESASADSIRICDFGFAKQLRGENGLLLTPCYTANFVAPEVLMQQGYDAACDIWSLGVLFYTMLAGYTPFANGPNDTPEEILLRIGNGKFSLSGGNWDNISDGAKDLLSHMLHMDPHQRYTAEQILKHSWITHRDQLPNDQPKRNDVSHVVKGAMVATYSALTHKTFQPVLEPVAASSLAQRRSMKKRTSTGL

Set 1 — organism: Sarcocystis neurona; read-out: parasite growth; tested at: 10 µM; time: 96 h; notes: first screen; baseline: untreated
SMILES | log2 fold change
CC(COc1ccccc1)N(CCCl)Cc1ccccc1 (centres unmarked) | 0.32
C[C@H]1c2cccc(O)c2C(=O)C2=C(O)[C@]3(O)C(=O)C(C(N)=O)=C(O)[C@@H](N(C)C)[C@@H]3[C@@H](O)[C@@H]21 | 0.37
C#C[C@]1(O)CC[C@H]2[C@@H]3CCc4cc(O)ccc4[C@H]3CC[C@@]21C | 0.21
Cn1c(=O)c2[nH]cnc2n(C)c1=O | 0.06
Clc1ccc2c(c1)C(N1CCNCC1)=Nc1ccccc1O2 | 0.0171

Set 2 — mode: antagonist
Target: Beta-1 adrenergic receptor (ADRB1, Homo sapiens, UniProt P08588)
Chain of UniProt P08588 (whole entry, looked up): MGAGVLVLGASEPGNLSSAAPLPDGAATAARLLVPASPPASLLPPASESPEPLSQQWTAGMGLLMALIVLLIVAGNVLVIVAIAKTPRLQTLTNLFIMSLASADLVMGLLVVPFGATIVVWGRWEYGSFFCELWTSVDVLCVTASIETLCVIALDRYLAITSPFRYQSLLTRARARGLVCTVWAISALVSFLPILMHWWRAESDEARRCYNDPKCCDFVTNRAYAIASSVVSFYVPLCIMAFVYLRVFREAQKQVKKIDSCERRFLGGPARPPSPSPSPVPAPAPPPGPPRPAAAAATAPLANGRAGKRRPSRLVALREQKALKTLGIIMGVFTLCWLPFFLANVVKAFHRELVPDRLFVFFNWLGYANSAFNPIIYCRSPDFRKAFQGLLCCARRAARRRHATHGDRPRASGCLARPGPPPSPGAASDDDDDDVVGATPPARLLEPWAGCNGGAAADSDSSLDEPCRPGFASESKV
SMILES | IC50 [µM]
CC(=O)N[S+](=O)([O-])c1ccc(NC(=O)c2cc(-c3ccccc3)nc3ccccc23)cc1 | ≥ 100
COc1ccccc1N1CCN(C(=O)C(C)[C@@H]2CCc3c(C)cc(OCCN4CCOCC4)c(C)c3C2)CC1 (some centres unmarked) | ≥ 100
O=C(Nc1ccc([C@@H](O)[C@H]2COCC(=O)N2CCCc2ccccc2)cc1)C1CC1 | ≥ 100
C=CCN1CCN(Cc2cccc(OCC(O)CN(C)C3CCCCC3)c2)CC1 (centres unmarked) | ≥ 100
COc1ccccc1N1CCN(CCC(=O)NC2CCCc3ccccc32)CC1 (centres unmarked) | ≥ 100
CN(C)c1cccc(C(=O)N2CC(COc3ccccc3)C3(C2)CN(C(=O)c2cn[nH]c2)C3)c1 (centres unmarked) | ≥ 100

Set 3 — read-out: cell-free assay; method: competition with immobilised ligand; tested at: 1 µM
Compound: CS(=O)(=O)c1cc(C2(NC(=O)c3cncc4c3cnn4-c3ccc(F)cc3)CC2)ccn1
target | remaining binding
IRAK4 (Homo sapiens, UniProt Q9NWZ3) | 100%
RIPK1 (Homo sapiens, UniProt Q13546) | 100%
MUSK (Homo sapiens, UniProt O15146) | 68%
PIK3CA (Homo sapiens, UniProt P42336, H1047Y) | 100%
STK32A (Homo sapiens, UniProt Q8WU08) | 71%
MAPKAPK2 (Homo sapiens, UniProt P49137) | 100%
BUB1 (Homo sapiens, UniProt O43683) | 85%
MELK (Homo sapiens, UniProt Q14680) | 100%
PIM2 (Homo sapiens, UniProt Q9P1W9) | 100%
eIF-2-alpha kinase GCN2, C-terminal kinase domain (EIF2AK4, Homo sapiens, UniProt Q9P2K8, S808G) | 91%
CSNK1E (Homo sapiens, UniProt P49674) | 84%
EGFR (Homo sapiens, UniProt P00533, G719C) | 100%
IGF1R (Homo sapiens, UniProt P08069) | 100%
Ribosomal protein S6 kinase alpha-6, N-terminal kinase domain (RPS6KA6, Homo sapiens, UniProt Q9UK32) | 97%
AKT3 (Homo sapiens, UniProt Q9Y243) | 96%

Set 4 — read-out: enzyme activity; mode: inhibitor; tested at: 0.5 µM; baseline: control
Target: ALK tyrosine kinase receptor (ALK, Homo sapiens, UniProt Q9UM73)
Chain of UniProt Q9UM73 (whole entry, looked up): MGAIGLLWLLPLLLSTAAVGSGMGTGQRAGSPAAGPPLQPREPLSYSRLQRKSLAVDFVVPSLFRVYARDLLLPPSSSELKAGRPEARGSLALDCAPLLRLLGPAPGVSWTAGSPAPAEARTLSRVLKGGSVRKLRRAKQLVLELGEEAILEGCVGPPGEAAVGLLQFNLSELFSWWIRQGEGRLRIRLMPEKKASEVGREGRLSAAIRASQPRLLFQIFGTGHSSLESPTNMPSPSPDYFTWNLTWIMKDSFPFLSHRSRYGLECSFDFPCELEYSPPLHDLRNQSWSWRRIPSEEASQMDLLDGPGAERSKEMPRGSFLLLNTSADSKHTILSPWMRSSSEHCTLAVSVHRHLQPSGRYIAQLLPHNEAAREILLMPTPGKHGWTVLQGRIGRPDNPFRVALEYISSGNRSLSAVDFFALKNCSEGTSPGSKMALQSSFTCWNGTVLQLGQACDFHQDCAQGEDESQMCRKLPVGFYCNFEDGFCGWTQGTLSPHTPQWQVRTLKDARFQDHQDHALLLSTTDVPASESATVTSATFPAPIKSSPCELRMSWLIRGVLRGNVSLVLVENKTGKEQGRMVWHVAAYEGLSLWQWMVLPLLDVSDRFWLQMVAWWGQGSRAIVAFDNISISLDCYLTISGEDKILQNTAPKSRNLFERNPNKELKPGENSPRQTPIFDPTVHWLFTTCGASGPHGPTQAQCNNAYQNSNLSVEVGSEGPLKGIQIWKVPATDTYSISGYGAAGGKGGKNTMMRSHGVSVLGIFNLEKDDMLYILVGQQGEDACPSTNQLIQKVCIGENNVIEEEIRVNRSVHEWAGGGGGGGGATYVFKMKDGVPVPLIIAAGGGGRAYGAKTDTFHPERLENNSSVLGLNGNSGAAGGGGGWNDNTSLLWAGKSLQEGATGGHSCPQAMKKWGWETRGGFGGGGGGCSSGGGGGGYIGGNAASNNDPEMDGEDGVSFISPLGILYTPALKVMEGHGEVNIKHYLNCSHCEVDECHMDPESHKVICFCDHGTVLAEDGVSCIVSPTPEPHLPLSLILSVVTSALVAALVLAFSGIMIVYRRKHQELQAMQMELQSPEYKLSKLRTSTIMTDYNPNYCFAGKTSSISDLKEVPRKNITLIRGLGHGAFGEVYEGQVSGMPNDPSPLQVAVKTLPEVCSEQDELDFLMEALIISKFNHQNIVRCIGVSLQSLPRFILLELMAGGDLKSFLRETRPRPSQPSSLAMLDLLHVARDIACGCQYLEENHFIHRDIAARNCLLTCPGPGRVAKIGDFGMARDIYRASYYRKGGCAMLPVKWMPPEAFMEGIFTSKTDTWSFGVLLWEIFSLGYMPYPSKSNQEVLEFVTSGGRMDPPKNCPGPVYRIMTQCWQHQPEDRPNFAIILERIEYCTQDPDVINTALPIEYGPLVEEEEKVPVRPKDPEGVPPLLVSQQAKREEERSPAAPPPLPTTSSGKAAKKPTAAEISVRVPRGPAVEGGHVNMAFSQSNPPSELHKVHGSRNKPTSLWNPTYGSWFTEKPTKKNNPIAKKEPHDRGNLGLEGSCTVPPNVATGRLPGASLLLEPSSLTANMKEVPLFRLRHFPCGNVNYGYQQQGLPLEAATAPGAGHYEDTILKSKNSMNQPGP
Structure (SMILES) | remaining activity
COc1ccc(S(=O)(=O)N(CCO)c2ccccc2CN(C)CC=Cc2ccc(Cl)cc2)cc1 | 98.1%
CC[n+]1c(/C=C/N(C)c2ccccc2)n(-c2ccccc2)c2ccc(-c3nc4ccccc4s3)cc21 | 99.1%
Fc1ccc(-c2nc3n(c2-c2ccncc2)CCS3)cc1 | 124%
O=S(=O)(NCCNC/C=C/c1ccc(Br)cc1)c1cccc2cnccc12 | 101%
Cc1cc(Nc2nc(-c3ccccc3)nc3ccccc23)n[nH]1 | 75.9%
Cc1cncc2cccc(S(=O)(=O)N3CCCN(C(=O)CN)C[C@@H]3C)c12 | 113%

For quick reference, copied from above (set 3):
target | remaining binding
CSNK1E (Homo sapiens, UniProt P49674) | 84%
MAPKAPK2 (Homo sapiens, UniProt P49137) | 100%
STK32A (Homo sapiens, UniProt Q8WU08) | 71%
